Results of several laboratories.
Each numbered part is a random draw from the data of one study; scales do not carry over between parts.

Series 1
Target: Histone acetyltransferase KAT6A, both winged helices, GST fusion (KAT6A, Homo sapiens, UniProt Q92794, residues 1-181)
Method: protein binding microarray
Form: double-stranded DNA, one strand shown
Sample: in vitro
Tested at: not given
Notes: 8-mer, flanks averaged, mean of 2 arrays, mostly near background
Reference: not given
Reading: higher = stronger binding
Measurement: E-score
Construct (chain): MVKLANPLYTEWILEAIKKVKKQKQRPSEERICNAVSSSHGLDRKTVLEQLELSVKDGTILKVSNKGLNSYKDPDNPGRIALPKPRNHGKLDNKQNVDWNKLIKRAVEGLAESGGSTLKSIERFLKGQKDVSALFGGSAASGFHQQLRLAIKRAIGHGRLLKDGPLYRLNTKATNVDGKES
ATTAGAGA: -0.179
GTTTCTTA: -0.0433
GTTTACCA: -0.00585
CGCGGCAA: 0.381
ATAACGGA: 0.0924
GTGCCGTA: 0.292
CGGCCGTC: 0.376
GCAAGGAC: 0.0125
GTACTATA: 0.0619
GTCATCAA: 0.0149
CGGCCAGC: 0.236
ATACTTTG: -0.154
CATTGTGA: -0.156
AAACGTAC: -0.152
ATTTATTC: -0.0511
CGGATATA: 0.198
TATCACAA: -0.164

Series 2
Target: Centromere-binding protein 1, full length, His-tagged (CBF1, Saccharomyces cerevisiae, UniProt P17106, residues 1-351)
UniProt P17106, sequence (whole entry, looked up): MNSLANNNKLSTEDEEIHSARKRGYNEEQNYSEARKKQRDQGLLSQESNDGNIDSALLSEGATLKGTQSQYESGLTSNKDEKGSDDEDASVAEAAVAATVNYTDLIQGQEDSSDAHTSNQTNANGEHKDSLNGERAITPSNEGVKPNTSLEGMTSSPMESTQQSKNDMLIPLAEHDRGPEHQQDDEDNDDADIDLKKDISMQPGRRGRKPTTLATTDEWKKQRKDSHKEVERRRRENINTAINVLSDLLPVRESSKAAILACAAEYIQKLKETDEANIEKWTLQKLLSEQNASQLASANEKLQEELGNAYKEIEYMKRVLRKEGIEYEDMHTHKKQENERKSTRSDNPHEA
Method: competition protein-binding microarray
Form: double-stranded DNA, one strand shown
Sample: in vitro
Tested at: 2 µM
Notes: whole 60-bp probe, lowest competitor level
Together with: Pho4 competitor, 0.05 µM
Reading: higher = stronger binding
Measurement: fluorescence intensity
CGTCCTAGTGATTGCGCGGTGGGTGCCATGAGGAAGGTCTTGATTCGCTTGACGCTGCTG: 87.4 a.u.
AGTACACATACTTTGCACGTGCGGACGGAACAATGGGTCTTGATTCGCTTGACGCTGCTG: 2140 a.u.
CGGGGTTAAGTTTGTCACGCTACTTGCTTGCAGCAGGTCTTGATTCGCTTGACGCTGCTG: 166 a.u.
TGCGCAACAACTTGAGCTGTGGGTGTATGTCTAGAAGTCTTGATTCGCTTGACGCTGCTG: 61.9 a.u.
TATTTTTTCACCATCAACGTGGTGATTCACTTATTCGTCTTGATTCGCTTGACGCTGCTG: 117 a.u.
CATCATTTGCCACTCCACATGACAATGTAAAAGCCAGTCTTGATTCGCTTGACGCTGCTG: 254 a.u.
CTAACGAAGGTTTGACGTGTGGGTGACAAGCCAAGTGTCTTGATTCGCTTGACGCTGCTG: 72.4 a.u.
CTAACGAAGGTTTGTCACACGACTTACAAGCCAAGTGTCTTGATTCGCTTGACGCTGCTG: 126 a.u.
TTTGCAGGAAACAGCCGCGTGCCAGTTTGCTCGATAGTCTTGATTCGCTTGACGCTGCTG: 76.9 a.u.
CGGGGTTAAGTTTGTATAGTGGGTGGCTTGCAGCAGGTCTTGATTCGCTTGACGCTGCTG: 67.9 a.u.
TGCGCAACAACTTGCGAGGTGGGTGTATGTCTAGAAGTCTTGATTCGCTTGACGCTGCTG: 64.9 a.u.
CTAACGAAGGTTTTTCACGTGTCCTACAAGCCAAGTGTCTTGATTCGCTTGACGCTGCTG: 956 a.u.
CTCAAGGGCGTACACCATGTGTTGGACATAAACCTCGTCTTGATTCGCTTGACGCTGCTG: 88.5 a.u.
AACCGTAGGATGTCCCACGTTCGACTTGAACTCGTTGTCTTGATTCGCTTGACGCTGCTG: 69.6 a.u.
CAGCTGGTTCTAACTCAGCTGATGGAACCTGCTTTCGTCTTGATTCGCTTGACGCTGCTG: 63.4 a.u.
TTGTGCTCGCTGGGCGGCGTGCCGATGCTTTCATCGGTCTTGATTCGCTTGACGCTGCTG: 54.2 a.u.
ACAACTATAATGGATGACATGATGAATATGTAGTGGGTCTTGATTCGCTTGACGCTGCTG: 85.6 a.u.
GTCTTGTCTCATTGCCGCGTGGGTGTCCCCACTTCAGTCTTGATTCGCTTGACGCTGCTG: 96.6 a.u.
AAAGCGGTAATTTGATCCGTGGGTGCAGATATCTATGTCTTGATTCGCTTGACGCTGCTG: 84.3 a.u.

Series 3
Target: RNA binding protein fox-1 homolog 2, RRM domain, GST-SBP tag (RBFOX2, Homo sapiens, UniProt O43251-10, residues 100-194)
Method: RNA Bind-n-Seq
Form: RNA
Sample: in vitro
Tested at: 365 nM
Notes: natural RNA segment, single round, ends assumed
Reference: no-protein control
Reading: higher = stronger binding
Measurement: RBNS enrichment (R)
Residues (chain): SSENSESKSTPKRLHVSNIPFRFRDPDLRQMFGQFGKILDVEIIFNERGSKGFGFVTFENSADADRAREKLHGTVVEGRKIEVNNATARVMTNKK
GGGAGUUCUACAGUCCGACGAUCUUUCUCGGGAAUUUUCAUCUAGGAUUUUAAGGGAAGGGGAAGGAUAGGGUGAUGUUCCGAAGGUGAGGAGCUUGAAACCCGUGGCGCUUUCUGCAGUUUGCAGGUUAUCAUGGAAUUCUCGGGUGCCAA: 0.616
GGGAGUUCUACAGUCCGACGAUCUUGUCGCUGUAUUAAGUGCAGUUUUCUUGGAGCCAUAACAACUGUUAAUGCUUAGGAAGCCCAUUUGCAAACACUCAGUGAAGAGACACUUAAGUUUAAAAUAAAGCUUUUGGAAUUCUCGGGUGCCAA: 0.208
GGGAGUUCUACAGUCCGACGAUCGACGUCCACAGAGGCAGCACGGAGUGGCGAAACUCGGUUCCAGCCUGUCGUCGGCAGUGAGCGGGUUUAGCUUUACACAGCCUCUGCCCAGCUUUAACUUGUAAGACAGCUGGAAUUCUCGGGUGCCAA: 1.67
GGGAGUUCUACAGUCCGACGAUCAUAUCUUUUCUUGUAUUCCCAUAUUUCUAGACAAUGAUUUUUGUAAGACAAUAAAUUUAUUCAUUAUAGAUAUUUGCGCCUGCUCUGUUUACUUGAAGAAAAAAGCACCCUGGAAUUCUCGGGUGCCAA: 0.546
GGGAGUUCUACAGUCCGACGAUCGGACUGUGUUACUGUGCCUCCUCUGACUCAUGUGCUUUUCAGCAUAAUAGACUUAUUUAAUAUUAAUUCCUAAACUUUGCACUGUCAAUCCUCUGCUGAGUUGUGGGAGGUGGAAUUCUCGGGUGCCAA: 0.456
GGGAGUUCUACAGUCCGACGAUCAAUUCCCCACAAGCGCCUGCGCCAGCCCCCUCCCUGCUACCUCACAGCCUGGGAUGGCUCCAACUUCUUGCCCCUUCGGACCAAGUCCUGUGGCCAUGAAGUCGUCUCCUUGGAAUUCUCGGGUGCCAA: 0.36
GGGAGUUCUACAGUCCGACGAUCCUGUGUAUAAAAUUUACUGGCCUUCUUCACUUACCUGCUCUAGUAUCGUAUCGUGUGUGCGUGCGUGUGUGACGUCAGGCUGCCACGUAAACUUCAGAGAAGAACCUUAAUGGAAUUCUCGGGUGCCAA: 0.619
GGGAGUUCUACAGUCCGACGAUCUUAUAGGUAGGGGCCCCACCCUCUGGGCUUCCCAUCAGCGACACACACACACUUAUGGCACCAGCCUGGACUCCAGAAAAAGGGUGUCCAGGUAUUGUGUGUAUGCAUUUUGGAAUUCUCGGGUGCCAA: 0.455

Series 4
Target: Interferon regulatory factor 5, full length, phosphomimetic (IRF5, Homo sapiens, UniProt Q13568-2, residues 1-514, S451D/S453D/S456D/S462D)
Method: protein-binding microarray
Form: double-stranded DNA, one strand shown
Sample: in vitro
Tested at: 940 nM top
Notes: 60-bp whole probe
Together with: salmon DNA 0.4 mg/ml
Reference: random background probes
Reading: higher = stronger binding
Measurement: fitted relative affinity
All sequences stand within: GCCTAGCAC … GTCTTGATTCGCTTGACGCTGCTG
TTAGAACTGACTATCGATTAGTGCTAG: 0.183 z-score
TCAAGTTTTAATAACACACTGTGCTAG: 0.166 z-score
TTAGGTATCGGGTCTGGGTTAGTGCTA: 5.56 z-score
GACGGACTGGGGACTGGGGGCGTGCTA: 0.15 z-score
TTAGGTCTCGGTATCGGTAAGTGCTAG: 6.98 z-score
GACGATCTCACTCTCGAGACGTGCTAG: 1.78 z-score
CACTATTTAAGACCTATGCACGTGCTA: 0.132 z-score
TTTCACACTGTCCAGCAGGTGTGCTAG: 3.69 z-score
TTAGGTTCCCTCTTCCTTTAGTGCTAG: 0.501 z-score
GAAGGTCTCCTACTGCTGACGTGCTAG: 0.00211 z-score
GACGGTATCGGGTTGCGGGACGTGCTA: 4.66 z-score
TCAATTCTCATTTCCAAACTGTGCTAG: 2.21 z-score
GATGGTATCGGGACTGGGGACGTGCTA: 4.42 z-score
GACGAACTGATTATCGAGACGTGCTAG: -0.262 z-score
TTAGGACTGCGTATCGGTTAGTGCTAG: 1.13 z-score
TTAGATATCGGGTTTCGATAAGTGCTA: 4.37 z-score
CGATTACAGCTAGGTAGTGGGTGCTAG: -0.015 z-score
GACGGTTTCCTTATGCTGACGTGCTAG: 1.23 z-score
